Measured values from different studies.
Each line is one published result; not all experiments were run side by side.
Mode: inhibitor
CDK2: Cyclin-dependent kinase 2 (CDK2, Homo sapiens, UniProt P24941)
CDK2 with cyclin E: Cyclin-dependent kinase 2, with cyclin E (CDK2, Homo sapiens, UniProt P24941)
CDK2 with cyclin A1: Cyclin-dependent kinase 2, with cyclin A1 (CDK2, Homo sapiens, UniProt P24941)

CN(C(=O)c1ccn2ncc(-c3ccc(C(N)=O)cc3)c2c1)c1ccc(C#N)cn1
IC50 (CDK2): > 10000 nM

N#Cc1c(N)nc(N)nc1OCC1CCCCC1
IC50 (CDK2; enzyme activity): 60000 nM

CC1=CC[C@]2(C(=O)O[C@H]3OC[C@@H](O)[C@@H](O)[C@@H]3OS(=O)(=O)O)CC[C@]3(C)C(CCC4[C@@]5(C)CC[C@H](O)C(C)(C)C5CC[C@]43C)C2[C@H]1C (some centres unmarked)
IC50 (CDK2; enzyme activity): 118 nM

Cc1ccc(C(C)C)cc1.Oc1ccccc1C=NNC1=Nc2ccccc2-c2[nH]c3ccc(Br)cc3c2C1.[Cl-].[Cl][Os+]
IC50 (CDK2 with cyclin E; enzyme activity, radiometric): > 40000 nM

CN(C)C/C=C/C(=O)Nc1ccc(C(=O)N[C@H]2CCC[C@@H](Nc3ncc(Cl)c(-c4c[nH]c5ccccc45)n3)C2)nc1
IC50 (CDK2; enzyme activity): 321 nM

N=C(N)NCCC[C@@H]1NC(=O)[C@H](Cc2c[nH]c3ccccc23)NC(=O)[C@H](CCCNC(=N)N)NC(=O)[C@H](Cc2c[nH]c3ccccc23)NC(=O)[C@H](CCCNC(=N)N)NC(=O)[C@H](Cc2c[nH]c3ccccc23)NC(=O)[C@H](CCCNC(=N)N)NC(=O)[C@H](Cc2c[nH]c3ccccc23)NC(=O)[C@H](CCCNC(=N)N)NC(=O)[C@H](Cc2c[nH]c3ccccc23)NC(=O)[C@H](CCCNC(=N)N)NC(=O)[C@H](Cc2c[nH]c3ccccc23)NC(=O)[C@H](CCCNC(=N)N)NC(=O)[C@H](Cc2c[nH]c3ccccc23)NC(=O)[C@H](CCCNC(=N)N)NC(=O)[C@H](Cc2c[nH]c3ccccc23)NC(=O)[C@H](CCCNC(=N)N)NC(=O)[C@H](Cc2c[nH]c3ccccc23)NC1=O
IC50 (CDK2 with cyclin A1; enzyme activity): 570 nM

O=C(COC(=O)CCCn1c(=O)oc2cc([N+](=O)[O-])ccc21)Nc1cccc(Cl)c1
IC50 (CDK2; enzyme activity, ADP detection): 43.1 nM

CC(=O)N[C@@H](Cc1c[nH]c2ccccc12)C(=O)N[C@@H](Cc1c[nH]c2ccccc12)C(=O)N[C@@H](Cc1c[nH]c2ccccc12)C(=O)N[C@@H](Cc1c[nH]c2ccccc12)C(=O)N[C@@H](Cc1c[nH]c2ccccc12)C(=O)N[C@@H](Cc1c[nH]c2ccccc12)C(=O)N[C@@H](Cc1c[nH]c2ccccc12)C(=O)NCCCC[C@@H]1NC(=O)[C@H](CCCNC(=N)N)NC(=O)[C@H](CCCNC(=N)N)NC(=O)[C@H](CCCNC(=N)N)NC(=O)[C@H](CCCNC(=N)N)NC(=O)[C@H](CCCNC(=N)N)NC1=O
IC50 (CDK2 with cyclin A1; enzyme activity): 2630 nM

COC(=O)N[C@H]1CC[C@@H](Nc2cc(NCc3ccccc3F)n3ncc(C(C)C)c3n2)CC1
IC50 (CDK2 with cyclin E; enzyme activity, luciferase kinase): 71 nM

N=C(N)NCCC[C@@H]1NC(=O)[C@H](Cc2c[nH]c3ccccc23)NC(=O)[C@H](CCCNC(=N)N)NC(=O)[C@H](Cc2c[nH]c3ccccc23)NC(=O)[C@H](CCCNC(=N)N)NC(=O)[C@H](Cc2c[nH]c3ccccc23)NC(=O)[C@H](CCCNC(=N)N)NC(=O)[C@H](Cc2c[nH]c3ccccc23)NC(=O)[C@H](CCCNC(=N)N)NC(=O)[C@H](Cc2c[nH]c3ccccc23)NC(=O)[C@H](CCCNC(=N)N)NC(=O)[C@H](Cc2c[nH]c3ccccc23)NC(=O)[C@H](CCCNC(=N)N)NC(=O)[C@H](Cc2c[nH]c3ccccc23)NC(=O)[C@H](CCCNC(=N)N)NC(=O)[C@H](Cc2c[nH]c3ccccc23)NC1=O
IC50 (CDK2 with cyclin A1; enzyme activity): 920 nM

Cc1nnc(NC(=O)CSc2nnc(-c3ccc4c(c3)OCCO4)o2)s1
IC50 (CDK2; enzyme activity, ADP detection): 67 nM
